# Experimental data collected from several papers.
# Target: Phosphatidylinositol 4,5-bisphosphate 3-kinase catalytic subunit alpha isoform (PIK3CA, Homo sapiens, UniProt P42336)
# UniProt P42336, sequence (whole entry, looked up): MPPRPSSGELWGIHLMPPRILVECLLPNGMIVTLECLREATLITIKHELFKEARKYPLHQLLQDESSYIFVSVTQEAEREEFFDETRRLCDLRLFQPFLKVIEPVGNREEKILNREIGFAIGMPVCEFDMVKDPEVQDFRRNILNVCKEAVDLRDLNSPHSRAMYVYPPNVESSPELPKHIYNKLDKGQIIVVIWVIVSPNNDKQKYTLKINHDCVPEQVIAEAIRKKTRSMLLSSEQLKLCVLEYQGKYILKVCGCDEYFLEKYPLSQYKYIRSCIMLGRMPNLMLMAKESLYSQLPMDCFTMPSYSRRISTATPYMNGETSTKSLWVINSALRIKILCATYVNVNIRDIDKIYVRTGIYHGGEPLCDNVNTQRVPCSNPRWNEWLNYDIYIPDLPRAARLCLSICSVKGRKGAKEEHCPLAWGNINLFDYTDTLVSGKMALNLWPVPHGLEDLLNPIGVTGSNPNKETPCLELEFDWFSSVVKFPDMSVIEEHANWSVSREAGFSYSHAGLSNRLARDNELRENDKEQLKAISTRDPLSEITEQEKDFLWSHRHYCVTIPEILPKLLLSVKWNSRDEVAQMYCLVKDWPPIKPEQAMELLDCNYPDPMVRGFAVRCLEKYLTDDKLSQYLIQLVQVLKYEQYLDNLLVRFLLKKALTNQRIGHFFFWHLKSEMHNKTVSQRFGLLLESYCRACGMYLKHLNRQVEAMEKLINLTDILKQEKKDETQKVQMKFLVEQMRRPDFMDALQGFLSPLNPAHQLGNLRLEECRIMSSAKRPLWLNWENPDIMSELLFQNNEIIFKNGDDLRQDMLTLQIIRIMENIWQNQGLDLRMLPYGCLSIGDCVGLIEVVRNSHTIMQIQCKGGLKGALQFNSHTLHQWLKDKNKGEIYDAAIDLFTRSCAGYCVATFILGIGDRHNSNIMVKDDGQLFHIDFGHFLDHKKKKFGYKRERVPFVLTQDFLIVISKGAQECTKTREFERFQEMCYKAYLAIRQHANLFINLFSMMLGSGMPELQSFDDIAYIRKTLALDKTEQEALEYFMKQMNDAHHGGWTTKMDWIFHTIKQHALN
Structure (SMILES),test,endpoint,value
Cc1nc2ccc(C(=O)N[C@H](Cc3ccc(C#Cc4ccc5nccnc5c4)cc3)C(=O)NCCC(=O)N[C@@H](CC(=O)N[C@@H](CCCCNC(=S)Nc3ccc4c(c3)C(=O)OC43c4ccc(O)cc4Oc4cc(O)ccc43)C(=O)O)C(=O)O)cc2nc1C,"binding, SPR",Kd,347 nM
Nc1ncc(-c2nc(N3CCOCC3)nc(N3CCN(C(=O)CCC(=O)NCCCCCCCCCNc4cccc5c4C(=O)N(C4CCC(=O)NC4=O)C5=O)CC3)n2)c(C(F)F)n1 (stereo not shown),"ligand displacement, TR-FRET",Ki,1.66 nM
Cc1nc(Nc2ccc3c(c2)/C(=C/c2ccccc2)C(=O)N3)c2ccccc2n1,"enzyme activity, inhibitor, ADP detection",IC50,18.4 nM
Cc1nc2ccc(C(=O)NC(Cc3cccc(C#Cc4ccc5nccnc5c4)c3)C(=O)NCCC(=O)N[C@@H](CC(=O)N[C@@H](CCCCNC(=S)Nc3ccc4c(c3)C(=O)OC43c4ccc(O)cc4Oc4cc(O)ccc43)C(=O)O)C(=O)O)cc2nc1C (stereo partly shown),"binding, SPR",Kd,6300 nM
Cc1ccc(CN2C(=O)C3(c4ccccc42)C(c2ccc(F)cc2)NC2(C(=O)N(C(=O)CCc4ccccc4)c4ccccc42)N3Cc2ccc(F)cc2)cc1 (stereo not shown),"enzyme activity, inhibitor, ADP detection",IC50,195 nM
CN1C(=O)CCC(N2C(=O)c3cccc(NCCCCCCCCCNC(=O)CCC(=O)N4CCN(c5nc(-c6cnc(N)nc6C(F)F)nc(N6CCOCC6)n5)CC4)c3C2=O)C1=O (stereo not shown),"ligand displacement, TR-FRET",Ki,3.47 nM
O=C1/C(=N\c2ccc(Cl)cc2Br)c2ccccc2N1C(=O)c1ccccc1,"enzyme activity, inhibitor, ADP detection",IC50,1080 nM
Nc1ncc(-c2nc(N3CCOCC3)nc(N3CCN(C(=O)CCC(=O)N4CCN(CCCCCCNc5cccc6c5C(=O)N(C5CCC(=O)NC5=O)C6=O)CC4)CC3)n2)c(C(F)F)n1 (stereo not shown),"ligand displacement, TR-FRET",Ki,0.851 nM
Cc1nc(Nc2ccc3c(c2)/C(=C/c2ccccc2Cl)C(=O)N3C)c2ccccc2n1,"enzyme activity, inhibitor, ADP detection",IC50,26 nM
O=C1/C(=N\c2cccc(Cl)c2)c2ccccc2N1Cc1ccccc1,"enzyme activity, inhibitor, ADP detection",IC50,77.5 nM

# A few entries again:
Structure (SMILES),test,endpoint,value
Nc1ncc(-c2nc(N3CCOCC3)nc(N3CCN(C(=O)CCC(=O)NCCCCCCCCCNc4cccc5c4C(=O)N(C4CCC(=O)NC4=O)C5=O)CC3)n2)c(C(F)F)n1 (stereo not shown),"ligand displacement, TR-FRET",Ki,1.66 nM
